Measurements gathered from unrelated publications.

C=CC(=O)Nc1cc(Nc2ncnc(Nc3ccc(F)c(Cl)c3)n2)c(OC)cc1N(C)CCN(C)C — unbound fraction (human plasma): 14.8%
Cc1[nH]nc2c1N=C(c1ccccc1Cl)c1cnc(N3CCOCC3)cc1N2 — unbound fraction (rat plasma): 0.0402
C=CC(=O)Nc1cc(Nc2ncnc(Nc3ccccc3S(N)(=O)=O)n2)c(OC)cc1N(C)CCN(C)C — unbound fraction (human plasma): 71.1%
CCC1(CC)CC(=O)N(C2c3cc(C(=O)NC4c5ccccc5CC4O)ccc3OC2(C)COC)C(=N)N1 (stereo not drawn) — unbound fraction (dog plasma): 0.135
COC1C(c2ccc(Cl)c(Cc3ccc(OC4CCOC4)cc3)c2)OC(CO)C(O)C1O (stereo not drawn) — unbound fraction (monkey plasma; 1 µM, 5 h): 0.081
c1ccc(-c2cc3cn[nH]c3nn2)cc1 — unbound fraction (rapid equilibrium dialysis; mouse plasma; 3 µM): 0.191
CC(C)(C)n1ncc2c(=O)n(Cc3cccc(F)c3)c(NCc3ccc(F)cn3)nc21 — unbound fraction (human plasma): 1%
C=CC(=O)N1CC2C(=O)N(CCN(C)C)c3c(c4cc(Cl)c(-c5c(O)cccc5F)nc4n(-c4c(C)ccnc4C(C)C)c3=O)N2CC1C (stereo not drawn) — unbound fraction (human plasma): 0.11
Cc1cccc(-c2ccc3nc(NC(=O)C4CCCCC4)nn3c2)c1 — unbound fraction (mouse plasma): 0.87
C=CC(=O)Nc1cc(Nc2ncnc(Nc3ccccc3C(C)(C)O)n2)c(OC)cc1N(C)CCN(C)C — unbound fraction (human plasma): 33.6%
COc1cc2cn[nH]c2nn1 — unbound fraction (rapid equilibrium dialysis; mouse plasma; 3 µM): 0.727
CCC1(CC)CC(=O)N(C2CCOc3ccc(C(=O)NC4CC(C)(C)Oc5ccccc54)cc32)C(=N)N1 (stereo not drawn) — unbound fraction (mouse plasma): 0.055

Some of these lines once more:
C=CC(=O)Nc1cc(Nc2ncnc(Nc3ccc(F)c(Cl)c3)n2)c(OC)cc1N(C)CCN(C)C — unbound fraction (human plasma): 14.8%
Cc1[nH]nc2c1N=C(c1ccccc1Cl)c1cnc(N3CCOCC3)cc1N2 — unbound fraction (rat plasma): 0.0402
